Assay results collected from several papers.
Each line is one published result; not all experiments were run side by side. “And” joins repeats or separate records; there may be more than shown. Numbers after ± are the reported error.

`CC[C@H](C)[C@H](NC(=O)[C@H](C)NC(=O)[C@H](CCCCN)NC(=O)[C@H](CC(C)C)NC(=O)[C@@H](N)Cc1ccccc1)C(=O)N[C@@H](CCCCN)C(=O)N[C@@H](CCCCN)C(=O)N[C@@H](Cc1ccccc1)C(=O)NCC(=O)N[C@@H](CCCCN)C(=O)N[C@@H](CCC(=O)O)C(=O)N[C@@H](Cc1ccccc1)C(=O)N[C@@H](CCCCN)C(=O)N[C@@H](CCCCN)C(=O)N[C@H](C(=O)NCC(=O)N[C@@H](C)C(=O)N[C@@H](CCCCN)C(=O)N[C@@H](CC(C)C)C(=O)N[C@@H](CCCCN)C(=O)O)[C@@H](C)CC` — result for “serum creatinine, BUN, ALT, ALP”: “no effect” (BALB/c mice; intraperitoneal, 64 mg/kg every 12 h for 5 days; baseline: untreated).
Under “subjects with severe TEAE”, `CC[C@H](C)C(=O)N1CCC(NC(=O)Nc2ccc(OC(F)(F)F)c(F)c2)CC1` is recorded as 0% (healthy volunteers; oral, 0.5 mg single dose, 14 (unit not given)).
`Cc1cc(Nc2nc(C[C@@]3(C(=O)O)CCN(Cc4cccc(Cl)c4F)[C@H](C)C3)cc(C)c2F)n[nH]1` gave a half-life of 4.8 h (beagle dog, plasma; oral, 1 mg/kg, single dose).
For `CC(C)[C@H](NC(=O)CNC(=O)[C@H](CCC(N)=O)NC(=O)[C@H](C)N)C(=O)O`, “discontinued due to adverse events” read 0% (human; intravenous infusion, 45 mg/kg/h, 2 h infusion).
`Cc1c(CN(C)C(=O)/C=C/c2cnc3c(c2)CC(N)C(=O)N3)oc2ccccc12` (stereo not shown) gave a tolerated dose of 50 mg/kg (C57BL/6 mice female; intraperitoneal, 50 mg/kg daily, 5 days).
`CC1N=C(c2ccccc2F)c2cc(Br)ccc2-n2cnc(C(=O)OC3OC(CO)C(O)C(O)C3O)c21` (stereo not shown) has a cumulative excretion of 44 ± 3.4% (LC-MS/MS; Swiss Webster mouse, female, urine; intravenous, 250 µg parent drug, 0 to 24 h).
`Cc1ccc2ccc3ccc(C)nc3c2n1.O.[99Tc+].[C-]#[O+].[C-]#[O+].[C-]#[O+]` gave a capacity factor of 0.97 (RP-HPLC C18 column, refers to: free diimine ligand; MeCN:water 40:60, 0.1% TFA; isocratic elution).
For `CC[C@H](C)[C@H](NC(=O)[C@H](C)NC(=O)CNC(=O)[C@H](Cc1ccccc1)NC(=O)[C@H](CC(N)=O)NC(=O)[C@H](CC(N)=O)NC(=O)[C@H](CO)NC(=O)[C@H](CO)NC(=O)[C@H](Cc1c[nH]cn1)NC(=O)[C@@H](NC(=O)[C@H](CC(C)C)NC(=O)[C@H](Cc1ccccc1)NC(=O)[C@H](CC(N)=O)NC(=O)[C@H](C)NC(=O)[C@H](CC(C)C)NC(=O)[C@H](CCCNC(=N)N)NC(=O)[C@H](CCC(N)=O)NC(=O)[C@@H](NC(=O)[C@H](C)NC(=O)[C@@H]1CSSC[C@H](NC(=O)[C@@H](N)CCCCN)C(=O)N[C@@H](CC(N)=O)C(=O)N[C@@H]([C@@H](C)O)C(=O)N[C@@H](C)C(=O)N[C@@H]([C@@H](C)O)C(=O)N1)[C@@H](C)O)C(C)C)C(=O)N[C@@H](CC(C)C)C(=O)N[C@@H](CO)C(=O)N[C@@H](CO)C(=O)N[C@H](C(=O)N[C@@H](CC(N)=O)C(=O)N[C@H](C(=O)NCC(=O)N[C@@H](CO)C(=O)N[C@@H](CC(N)=O)C(=O)N[C@H](C(=O)N[C@@H](Cc1ccc(O)cc1)C(N)=O)[C@@H](C)O)C(C)C)[C@@H](C)O`, “critical micelle concentration” read ~1.5 µM and ~2 µM (pyrene fluorescence; 20 mM phosphate, 50 mM NaCl; pH 7.4, 25 °C).
For `CCCCCCCC(=O)NCCCC[C@H](NC(=O)[C@H](Cc1ccccc1)NC(=O)[C@@H](CCCNC(=N)N)NC(=O)[C@@H](N)Cc1ccc(O)cc1)C(N)=O`, the Vd was 0.0452 L (male CD-1 mouse, plasma; intravenous, 3 mg/kg).
With `CN(C)C(CNC(=O)Nc1cc(C(F)(F)F)ccc1N1CCOCC1)c1ccncc1` (stereo not shown) the serum creatinine was 1 mg/dL (mouse, serum; intraperitoneal, 360 mg/kg single dose).
